Published values pooled from the literature.
Every numbered part comes from another study and shows a few of its results, in no order. Changes are numbered by the printed parent chain.

Block 1
Target: ABI1, truncated, D143A, DHFR fusion (Arabidopsis thaliana)
Technique: DHFR PCA, deep sequencing
Sample: yeast
Notes: methotrexate growth selection, single substitutions
Added: (+)-ABA 1.4 µM
Baseline: wild-type fitted maximum
Reading: higher = stronger binding
Starting sequence: PYL1, truncated, DHFR fusion (Arabidopsis thaliana); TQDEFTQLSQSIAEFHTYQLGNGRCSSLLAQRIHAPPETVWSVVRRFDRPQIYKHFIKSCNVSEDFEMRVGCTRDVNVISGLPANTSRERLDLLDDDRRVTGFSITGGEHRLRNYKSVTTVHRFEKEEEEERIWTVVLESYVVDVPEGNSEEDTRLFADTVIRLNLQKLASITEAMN
`A158L` — result for “relative binding score”: 54.9%.
`L166W`: “relative binding score” 2.09%.
`S26A` — result for “relative binding score”: 44.7%.
`V40H`: “relative binding score” -18.9%.
Under “relative binding score”, `L169D` is recorded as 5.61%.
For `A13H`, “relative binding score” read 45.1%.
For `A30T`, “relative binding score” read 53.3%.
`C72M` — result for “relative binding score”: 54.2%.
`I172E`: “relative binding score” -25.8%.
`E130F` — result for “relative binding score”: 39.7%.
Under “relative binding score”, `L169E` is recorded as -6.84%.
`I12F` — result for “relative binding score”: -4.19%.
`N165G`: “relative binding score” 5.11%.
`G148P`: “relative binding score” 4.64%.
`Y18M` — result for “relative binding score”: 9.22%.

Block 2
Target: CCNE1, cyclin fold, Cln2 fusion (human)
Technique: yeast growth competition, sequencing
Sample: yeast
Notes: weak parent motif
Baseline: not given
Reading: higher = stronger binding
Starting sequence: ITGB3BP docking peptide (human); MPVKRSLKLDGLL
`MPVKRSLKLAGLL [D10A]` — result for “normalised enrichment score”: 0.501.
For `MPAKRSLKLDGLL [V3A]`, “normalised enrichment score” read 0.987.
`APVKRSLKLDGLL [M1A]`: “normalised enrichment score” 0.463.
Under “normalised enrichment score”, `MPVKRSLKADGLL [L9A]` is recorded as 1.12.
For `MPVARSLKLDGLL [K4A]`, “normalised enrichment score” read 0.714.
For `MPVKRSLALDGLL [K8A]`, “normalised enrichment score” read 0.649.
`MPVKKSLKFDGLL [R5K L9F]` — result for “normalised enrichment score”: 0.493.

Block 3
Target: Interferon regulatory factor 7, full length, phosphomimetic (IRF7, Homo sapiens, UniProt Q92985, residues 1-503, S101K/S471D/S472D/S475D/S476D/S477D/S483D/S484D/S487D)
Technique: protein-binding microarray
Molecule type: double-stranded DNA, one strand shown
Sample: in vitro
Concentration: 250 nM
Notes: 60-bp whole probe
Added: salmon DNA 0.4 mg/ml
Baseline: random background probes
Reading: higher = stronger binding
All sequences stand within: GCCTAGCAC … GTCTTGATTCGCTTGACGCTGCTG
Construct (chain): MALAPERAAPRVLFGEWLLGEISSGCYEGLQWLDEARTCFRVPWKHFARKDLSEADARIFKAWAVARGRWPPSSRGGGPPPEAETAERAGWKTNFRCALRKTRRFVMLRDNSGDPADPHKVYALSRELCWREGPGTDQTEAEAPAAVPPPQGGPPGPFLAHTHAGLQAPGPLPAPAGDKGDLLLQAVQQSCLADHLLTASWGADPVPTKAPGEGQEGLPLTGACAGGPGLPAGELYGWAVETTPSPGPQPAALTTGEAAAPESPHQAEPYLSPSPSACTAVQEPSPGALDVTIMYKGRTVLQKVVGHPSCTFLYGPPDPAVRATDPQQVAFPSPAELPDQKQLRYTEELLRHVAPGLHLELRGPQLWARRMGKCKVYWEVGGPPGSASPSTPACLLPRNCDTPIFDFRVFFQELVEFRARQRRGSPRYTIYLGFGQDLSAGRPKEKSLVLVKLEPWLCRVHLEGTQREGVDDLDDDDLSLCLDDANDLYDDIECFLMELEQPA
The log fluorescence of `AATCATTTTCGTTTTTATTAGTGCTAG` is reported as 6.95 z-score.
For `TTAGTTTCCCTTTTCCTTTAGTGCTAG`, the log fluorescence was 9.21 z-score.
`TCATTTGTCATCTATAATACTGTGCTA` has a log fluorescence of 1.61 z-score.
The log fluorescence of `TCAATTTTCCCCTACTGACTGTGCTAG` is reported as 1.49 z-score.
For `TCATATATATCATTTAAACTGTGCTAG`, the log fluorescence was 0.726 z-score.
With `TTAGGACTGGGGTCTGGGTTAGTGCTA` the log fluorescence was -0.503 z-score.
For `TCAGATTCCAGTTTCGATTAGTGCTAG`, the log fluorescence was 9.85 z-score.
For `TCACTTCTGCCTGTCCAACTGTGCTAG`, the log fluorescence was 0.697 z-score.
With `GTAGGTTTCCTACTGCTTTAGTGCTAG` the log fluorescence was 0.44 z-score.
`TCAATATTCTGCTTTGCACTGTGCTAG` has a log fluorescence of 0.379 z-score.
`GTCGGTCTCGGACTGGGGACGTGCTAG` gave a log fluorescence of 0.542 z-score.
`TTAGGTATCGGGACTGGGTCAGTGCTA` gave a log fluorescence of -0.0565 z-score.
`TTAGGTTTCGACTTTCGGTCAGTGCTA` has a log fluorescence of 10.2 z-score.
With `TGAGAACTGAGTCTCGATTAGTGCTAG` the log fluorescence was 0.872 z-score.

Further values, each from its own experiment
`PhoQ, residues 284 288 289 292 302 303 SIHMAM` has a fold induction of 0.728 (PhoP, residues 12 14 15 18 19 LHHSG (Escherichia coli, UniProt P23836); Sort-seq, measured: YFP reporter; E. coli; PhoQ-PhoP variant library, added: 10 µM Mg2+; baseline: high Mg2+ state, higher = stronger signaling).

Some of these lines once more (block 1):
`G148P`: “relative binding score” 4.64%.
Under “relative binding score”, `L169D` is recorded as 5.61%.
For `A13H`, “relative binding score” read 45.1%.
`C72M` — result for “relative binding score”: 54.2%.
`I12F` — result for “relative binding score”: -4.19%.
`S26A` — result for “relative binding score”: 44.7%.
